Experimental data gathered from unrelated publications.
A part holds a random share of what one study measured.

Study 1
Target: Cyclic AMP-dependent transcription factor ATF-1 (ATF1, Homo sapiens, UniProt P18846, residues 1-271, full length assumed)
Technique: protein-binding microarray
Molecule type: double-stranded DNA, one strand shown
Sample: in vitro
Concentration: not given
Notes: k-mer, scored over probes, only values ≥0.25
Direction: higher = stronger binding
Construct (chain): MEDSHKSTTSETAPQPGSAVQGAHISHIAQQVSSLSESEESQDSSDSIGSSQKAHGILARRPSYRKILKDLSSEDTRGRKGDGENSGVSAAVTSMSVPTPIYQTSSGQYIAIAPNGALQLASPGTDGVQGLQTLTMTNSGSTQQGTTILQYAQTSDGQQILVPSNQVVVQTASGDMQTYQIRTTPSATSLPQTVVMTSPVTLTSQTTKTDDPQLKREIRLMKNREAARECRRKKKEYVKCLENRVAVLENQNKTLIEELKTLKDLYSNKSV
With `ACATCAT` the E-score was 0.29.
For `TACGTGA`, the E-score was 0.36.
`AATGACA` has an E-score of 0.266.
`ACGTCGA` has an E-score of 0.302.
For `CATAACG`, the E-score was 0.258.
`GCACGTA` has an E-score of 0.302.
For `ACGCCGT`, the E-score was 0.264.
For `GTGACGA`, the E-score was 0.446.

Study 2
Target: Histone acetyltransferase KAT6A, winged helix 2, GST fusion (KAT6A, Homo sapiens, UniProt Q92794, residues 85-181)
Technique: protein binding microarray
Molecule type: double-stranded DNA, one strand shown
Sample: in vitro
Concentration: not given
Notes: 8-mer, flanks averaged, mean of 2 arrays, mostly near background
Reference: not given
Direction: higher = stronger binding
Construct (chain): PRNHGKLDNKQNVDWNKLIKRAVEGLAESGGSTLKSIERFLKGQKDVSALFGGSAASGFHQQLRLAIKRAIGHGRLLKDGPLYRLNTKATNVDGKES
`ACGGGCGA` gave an E-score of 0.0213.
For `GGGTTAAC`, the E-score was 0.0936.
For `CCCACGTA`, the E-score was -0.246.
For `GGACGCGA`, the E-score was 0.0241.
`GGAAATCC` has an E-score of 0.0129.
With `AATGGGTG` the E-score was -0.116.
`CCGCGGAA` gave an E-score of 0.17.

Study 3
Target: RNA binding protein fox-1 homolog 2, RRM domain, GST-SBP tag (RBFOX2, Homo sapiens, UniProt O43251-10, residues 100-194)
Technique: RNA Bind-n-Seq
Molecule type: RNA
Sample: in vitro
Concentration: 365 nM
Notes: natural RNA segment, single round, ends assumed
Reference: no-protein control
Direction: higher = stronger binding
Residues (chain): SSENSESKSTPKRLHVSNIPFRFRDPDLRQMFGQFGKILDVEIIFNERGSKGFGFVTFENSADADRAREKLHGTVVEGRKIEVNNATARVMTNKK
`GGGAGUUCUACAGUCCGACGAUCCCCCUUAGAUGGAGUCUUGCUCUGUCACCCAGGUUGGAGUGCAGUGGCACAAUCAGCUCACUGCAACCCCUCCUCCUAGGUUCAAGCGAUUGAGUAGCUGAGAUUACAGGUGGAAUUCUCGGGUGCCAA` — result for “RBNS enrichment (R)”: 0.261.
`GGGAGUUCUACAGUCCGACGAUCAGUACUACCUUGCCAGGGACUCAGUCAGGGGACUUUGGGAGAAAGACUUGAUAGCCAGGCUGACUGGGUUCUAGGCAGGCCCUCUGGAAAGGUAGCUCACCUAACAAAGCUGGAAUUCUCGGGUGCCAA` — result for “RBNS enrichment (R)”: 0.196.
`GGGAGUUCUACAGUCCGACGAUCCUCCUGGCAAGUGAGAAAGCCCUUUAUGCAGCAAUAUAUCAUAGCAGGUGGCUGGGGACACUGCAUAUUCCCUGCUGGUGGCUCGGCUCACCUGUUCUGCCUCCCUUGGCUGGAAUUCUCGGGUGCCAA` — result for “RBNS enrichment (R)”: 0.508.
For `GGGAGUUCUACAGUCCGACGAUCCCUAUACCUGCCCAGGACAUCUUAAUAACCCCAGGGCUGGGGACUCCAUGGCCACACUCCUGUGAAUGGGUAUCGGGGAGUUAGGAUCUUUCUUCUCCCAAUGCCUCUUGUGGAAUUCUCGGGUGCCAA`, “RBNS enrichment (R)” read 0.702.
`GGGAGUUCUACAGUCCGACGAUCUCUUAUCUGCUUAGUGGAUUUUAUGCCCUUAUAACUAAGUAAAGAAAAUUUAUGACUACCAAAUAUUUAGGAUACUUAGAAAUAUUUUACUACAUAUGAAUCUGAUAUUCUGGAAUUCUCGGGUGCCAA` — result for “RBNS enrichment (R)”: 0.49.
`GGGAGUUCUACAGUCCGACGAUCGCAUAGACACAUAAUUAUGCUUAAGCUUUUAACAGCAUUUUAACCGCUCUAAAAAUUACCAGAGUAAGAAAAAGCUAGGUACUUUAAAGUGAGUUUGAGAAACAAGUUGAUGGAAUUCUCGGGUGCCAA`: “RBNS enrichment (R)” 1.08.
For `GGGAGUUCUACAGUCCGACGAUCAAUUUCUGAAGCUUAGUGUAAUUGAGUGGUGGUUGUUAUUCAAUAAAAUUAUUCCCAAAAGUGUUUCUCCUAAGAGUGCAGUUCCCAUGAGUCACUUCCUGAACCCAUUGUGGAAUUCUCGGGUGCCAA`, “RBNS enrichment (R)” read 0.332.
`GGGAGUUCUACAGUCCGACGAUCAGGAGUGUGAGAGGAUGGGGGAAGCACUGUGGGAAGACCACCAAAGAUGGCUGGACAGUGGGAGAGAGCACGUUGUGAAGCAUCCCAGCCUCGUGUUGAGGUUCCAGACUUGGAAUUCUCGGGUGCCAA`: “RBNS enrichment (R)” 0.969.

Mixed results
The fold induction of `PhoQ, residues 284 288 289 292 302 303 NLMGRA` is reported as 0.668 (PhoP, residues 12 14 15 18 19 STHWV (Escherichia coli, UniProt P23836); Sort-seq, measured: YFP reporter; E. coli; PhoQ-PhoP variant library, with: 10 µM Mg2+; reference: high Mg2+ state, higher = stronger signaling).

Some of these lines once more (study 3):
`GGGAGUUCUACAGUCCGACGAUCCUCCUGGCAAGUGAGAAAGCCCUUUAUGCAGCAAUAUAUCAUAGCAGGUGGCUGGGGACACUGCAUAUUCCCUGCUGGUGGCUCGGCUCACCUGUUCUGCCUCCCUUGGCUGGAAUUCUCGGGUGCCAA` — result for “RBNS enrichment (R)”: 0.508.
`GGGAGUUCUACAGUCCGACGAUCAGUACUACCUUGCCAGGGACUCAGUCAGGGGACUUUGGGAGAAAGACUUGAUAGCCAGGCUGACUGGGUUCUAGGCAGGCCCUCUGGAAAGGUAGCUCACCUAACAAAGCUGGAAUUCUCGGGUGCCAA` — result for “RBNS enrichment (R)”: 0.196.
